Published values pooled from the literature.
Lines come from different studies, so protocols differ. ± gives the spread as reported.

| Structure (SMILES) | host | matrix | route | dose | time | notes | renal clearance [mL/min] |
| --- | --- | --- | --- | --- | --- | --- | --- |
| CC[C@@H]1CN(C(=O)NCC(F)(F)F)C[C@@H]1c1cnc2cnc3[nH]ccc3n12 | human, normal renal function | urine and plasma | oral | 15 mg single dose |  | extended release, fasted, geometric mean | 88.7 |
| COc1cc(C(=O)NC2CCN(C)CC2)c(F)cc1Nc1ncc(C(F)(F)F)c(Oc2cccc3c2C(=O)N(C)C3)n1 | human patients | plasma and urine | oral | 200 mg single dose | 0-24 h | cycle 1 | 21.7 |
| NCCCS(=O)(=O)O | human, both sexes | urine and plasma |  |  |  | mean across cohorts and days | 128 to 221 |
| C/C(=C\c1csc(C)n1)[C@@H]1C[C@@H]2O[C@]2(C)CCC[C@H](C)[C@H](O)[C@@H](C)C(=O)C(C)(C)[C@@H](O)CC(=O)N1 | human patients |  | intravenous | 70 mg | 0 to 168 h |  | 24.5 |
| O=C(c1cccnc1-c1ccncc1)N1CCC(O)(Cc2ccccc2)CC1 | healthy human | urine | oral | 400 mg once daily | day 14 | arithmetic mean | 6.33 |
| CCOc1ccc(Cc2cc([C@]34OC[C@](CO)(O3)[C@@H](O)[C@H](O)[C@H]4O)ccc2Cl)cc1 | human, type 2 diabetes, moderate renal impairment |  | oral | 15 mg |  |  | 0.8 |
| CC(C)(C)OC[C@@H]1C(=O)NCCN1C(=O)C[C@H](N)Cc1cc(F)c(F)cc1F | human |  |  | 10 mg once daily |  | steady state, day 10 | 280 ± 117 |
| C[C@@H]1CCC[C@H](n2cnc(-c3cc(Cl)ccc3-n3cc(Cl)nn3)cc2=O)c2cc(ccn2)-c2c(cnn2C(F)F)NC1=O | human, severe renal impairment | plasma and urine | oral | 60 mg single dose |  |  | 4.38 |

For quick reference, copied from above:
| Structure (SMILES) | host | matrix | route | dose | time | notes | renal clearance [mL/min] |
| --- | --- | --- | --- | --- | --- | --- | --- |
| C[C@@H]1CCC[C@H](n2cnc(-c3cc(Cl)ccc3-n3cc(Cl)nn3)cc2=O)c2cc(ccn2)-c2c(cnn2C(F)F)NC1=O | human, severe renal impairment | plasma and urine | oral | 60 mg single dose |  |  | 4.38 |
